# Results of several laboratories.
# Parts stem from different laboratories: compare values within a part only.

# Sample 1 — method: protein-binding microarray; molecule type: double-stranded DNA, one strand shown; matrix: in vitro; tested at: 0.8 µM; notes: whole 60-bp probe, no competitor; reading: higher = stronger binding; all sequences stand within: … GTCTTGATTCGCTTGACGCTGCTG
# Target: Centromere-binding protein 1, full length, N-terminal tag (CBF1, Saccharomyces cerevisiae, UniProt P17106, residues 1-351)
# Sequence of UniProt P17106 (whole entry, looked up): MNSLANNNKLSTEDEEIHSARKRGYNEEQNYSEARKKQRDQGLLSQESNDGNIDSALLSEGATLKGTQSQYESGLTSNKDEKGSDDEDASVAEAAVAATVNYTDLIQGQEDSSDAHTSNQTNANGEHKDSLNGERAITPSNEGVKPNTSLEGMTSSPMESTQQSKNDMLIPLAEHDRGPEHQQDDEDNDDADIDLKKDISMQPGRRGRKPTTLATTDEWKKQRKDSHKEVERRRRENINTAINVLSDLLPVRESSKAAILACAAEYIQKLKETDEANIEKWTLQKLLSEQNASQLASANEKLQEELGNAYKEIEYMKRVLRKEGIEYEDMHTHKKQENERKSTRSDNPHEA
Sequence,fluorescence intensity [a.u.]
CTATGGTCGTCAGGTATCACGAGCGGGTAACAGTTC,952
GAAAGCCGCAGACGTGAGTTGATCTTTTTGCTTTAG,484
TGTACGAAGCTATGGTCGGTCACTATAGTAGTTAGG,514
GAAATTCCCTATAATCACGACGATAGGACTGTATAG,557
GAAAGACAGACCCAATTGGTGATGAAGAACAATTAG,491
GAAATTTCTCATCATCACCTACATATTCTCCTATAG,586
GAACTAACTGAAAGGCATGTGGGTTTGTGTGTGTAG,550
GAAATTAAAGTAATCCATGTGGTAAATAAAATCTAG,625
CTACAGTTTGGCTTACACATGATGGTTGGAATATTC,631
CTAAGTCGGGAACCTGATGCATCATTCTTTATCTTC,532
CTAAAGATGAAAAGAACCGTGATCAGCAACAGCTTC,645
GAAAAAAGTCCGGGTGACATTACATACATACGCTAG,555
GAAATCATGCTTTGCCATGTGATGCCCAATAGATAG,2550
CTATCTTCTACAGCCCTGATGCAAGTGGAAGTTTTC,511
CTACCATAGGTGAGCCACGAGTTTGATTCCAAATTC,539
GAACAAATATCGCGTTACGTGGTGGTGAACAGATAG,550
CTATTCCCCTAGAATCCCACGTGCACCCATACCTTC,4760
CTAATTTATCCTTGTCAGTCACCTTAATAGACGTTC,572
GAATAGAGTCACTCCCCCGTGTGTTCGGTCCGGTAG,626
GAATAGAAACATTATCACGCACTGCGTTTTGCTTAG,604

# Sample 2 — method: protein-binding microarray; molecule type: double-stranded DNA, one strand shown; matrix: in vitro; tested at: 2200 nM top; notes: 60-bp whole probe; added: salmon DNA 0.4 mg/ml; reference: random background probes; reading: higher = stronger binding; all sequences stand within: GCCTAGCAC … GTCTTGATTCGCTTGACGCTGCTG
# Target: Interferon regulatory factor 7, full length, phosphomimetic (IRF7, Homo sapiens, UniProt Q92985, residues 1-503, S471D/S472D/S475D/S476D/S477D/S483D/S484D/S487D)
# Sequence of UniProt Q92985 (whole entry, unmodified, looked up): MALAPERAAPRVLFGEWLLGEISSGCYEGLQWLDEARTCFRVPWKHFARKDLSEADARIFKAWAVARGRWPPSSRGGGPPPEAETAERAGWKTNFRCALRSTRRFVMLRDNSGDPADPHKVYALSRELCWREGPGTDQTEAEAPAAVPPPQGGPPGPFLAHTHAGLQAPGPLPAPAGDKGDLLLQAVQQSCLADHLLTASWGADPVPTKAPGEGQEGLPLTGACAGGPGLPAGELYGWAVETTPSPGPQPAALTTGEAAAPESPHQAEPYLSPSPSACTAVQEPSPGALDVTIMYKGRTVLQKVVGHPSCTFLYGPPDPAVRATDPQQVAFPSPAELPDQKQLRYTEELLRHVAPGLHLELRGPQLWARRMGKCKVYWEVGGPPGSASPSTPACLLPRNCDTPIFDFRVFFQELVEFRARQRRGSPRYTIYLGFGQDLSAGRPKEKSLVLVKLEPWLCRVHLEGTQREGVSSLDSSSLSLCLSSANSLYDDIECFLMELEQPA
Sequence,fitted relative affinity [z-score]
GACGGTTTGGGGTATCGGGACGTGCTA,0.537
TCATTTTTCTAATTGAAACTGTGCTAG,2.5
GACGATCTCAGACTGCAGACGTGCTAG,-0.0247
GACGGTATCGGGTCTCGGGACGTGCTA,0.113
AACGGTATCGGACTGGGGACGTGCTAG,-0.156
GACGGTATCGGACTGGCGACGTGCTAG,-0.363
GACGATTTCCTTTTCCTGACGTGCTAG,3.16
TTAGGACTGGGACTGGGGTAGTGCTAG,-1.03
GACTATATCAGTCTCGAGACGTGCTAG,0.449
TTAGGACTGGGTTTCGGTTCGTGCTAG,8.53
TCAAGGGTCTGTTTGGGACTGTGCTAG,-0.435
TCACACCAGAGGGCGCTGTGGTGCTAG,-0.361
TTAGGTATCCCTCTCCTTTAGTGCTAG,1.18
TTAGATATCAGACTGGATCAGTGCTAG,-0.127
TCACTGCTCCTCTTTTTTACTGTGCTA,1.77
TTAGGTATCGACTTTGGGTTAGTGCTA,0.304
TTAGGCTTCGGGACTGGGTTAGTGCTA,-0.54

# Sample 3 — method: RNA Bind-n-Seq; molecule type: RNA; matrix: in vitro; tested at: 100 nM; reference: input RNA pool; reading: higher = stronger binding
# Target: RING finger protein unkempt homolog, zinc fingers 1-6, SBP tag (UNK, Homo sapiens, UniProt Q9C0B0, residues 30-357)
# Sequence of UniProt Q9C0B0 (30-357, looked up): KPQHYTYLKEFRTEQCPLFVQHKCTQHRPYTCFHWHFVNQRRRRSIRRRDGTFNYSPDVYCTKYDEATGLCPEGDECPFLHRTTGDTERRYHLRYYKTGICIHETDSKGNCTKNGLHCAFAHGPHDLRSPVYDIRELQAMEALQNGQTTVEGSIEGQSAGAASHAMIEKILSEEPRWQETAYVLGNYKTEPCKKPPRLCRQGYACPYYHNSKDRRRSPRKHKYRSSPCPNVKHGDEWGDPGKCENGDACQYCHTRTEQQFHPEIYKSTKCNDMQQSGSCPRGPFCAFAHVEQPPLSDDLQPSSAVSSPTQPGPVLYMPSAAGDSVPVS
# Notes: RNA with constant flanks, vertebrate orthologous sites, ends assumed
# All sequences stand within: GGGAGUUCUACAGUCCGACGAUC … CAACAGAGGAUUGAGCAUCA
Sequence,bound/input enrichment
GCUCUAGUUCUUAACAACCGACACUCCUACAAGAUUUAGAAAAAAGUUUACAACAUAAUCUAGUUUACAGAAAAAUCUUGUGCUAGAAUAAUUUUUAAAAGGUAUUUUGAAUACCAUUAA,1.86 ratio
UAUCUUAAGGAUGAAACUCUUACACCAGGUGUCACGGGUCUGGAGAAGAGAUGGGUUGUCUAGCUGCUCUUAUAAAUUACUGUCGGUGGAAUACAAUCCUUUAUAUAUCAACAUCACAGU,1 ratio
CAACUCCAUGGUGGAGGGCUCCGAGCUCAAGAAGGUCCGCUCCAACUCCAGAAUCUACCACCGCUAUUUCCUCCUGGACGCCGACAUGCAGAGCCUGAGGUGGGAGCCGUCCAAGAAGGA,0.425 ratio
UCCUUUUAGGAUGAAGCUGUUACACCAGAUGUCACGGGUCUGGAAAACAGAUGGCUUAUCAAGUUGUUCUUACAGAUUACUCUCUGUGGAGCACAAUCCUUUAUAUACCAACAUCACAGU,0.916 ratio
UGUAGUUUGUUUUUAAUUUCAAGCAAAAAUCUUAUUGUACUUGAAUGUGCCCUGUUUUGUUAGCACACCUAGACUUGCUGUAACUGUACUCAUGUCCCAGUAUGUACGUUCUUUCUAUGA,0.505 ratio
CCCAGUCUUCCACUUAAGGUCAGCCACAUUCUAUAGGAUUUAUGACAGCUAUAUUAUAUCUAGUUAAUAAUUUUUAUCACCUGUAACUAAUUACAUUAAAAUGAUAUUGAUCUGAUAAAA,1 ratio
CGGCAGAUUCGCUCAUAGGGAGAGCUGCACACAUUGCUGUUCUUGAUUCAGAAAUAUUUUUAGAAAAAUUCUUCCUUGUUGCUGCCCUCAAAUAUUUUCAGUAGAGAAAAGCAUUGUAAG,0.501 ratio
AGUAUCCCAGGUGUACCGUGUUGGGUUGGCAUUGUACAGAAAUUAACAGCCAUAUUGGUCUAGAAACGUUGGACGUAAUUUUCUCCAUUUGUACAGGGGUUACGCACUGUGUUAAAUACG,0.563 ratio
CAGCUGAUUCUCUCAUAGGGAGAGCUGCACACAUUGCUGUUCUUGAUUCAGAAAUAUUUUUAGAAAAGUUCUUUUUGGUUGCUGCCCUAAAAUAUUUCCAGUAGAAGAAAAGCAUUGCAA,0.555 ratio
AGUCAUGGAGAAGAAGAUACUAAAAAUAAUCUCAUGGCACUGAUACUAAUUUAUUUUUAUUAGUUUUACAAAAGUCAGGGUUCUUGUUUAUAAACAGCAGGUACUGACUAUUAAGGCAAA,0.225 ratio
CUCUAGUUCUUAACAACCAACCCUCCUAAAAGAUUUAGAAAAGAAGUUUACAACAUAAUCUAGUUUACAGAAAAAUCUUGUGCUAGGAUACUUUUUAAAAAGUAUUUUGAAUAUCAUUAA,1.08 ratio

# Further values, each from its own experiment — organism: Saccharomyces cerevisiae; effect on: peptide binding; method: yeast competitive growth sequencing; molecule type: peptide; strain: cyclin E2-Cln2 fusion; notes: library 2; reading: direction not given
Molecule,enrichment score
GFGFLLFICKLTF,0.116
LLRRLQDVANDRG,-1

# Some of these lines once more (sample 1):
Sequence,fluorescence intensity [a.u.]
GAAATTCCCTATAATCACGACGATAGGACTGTATAG,557
TGTACGAAGCTATGGTCGGTCACTATAGTAGTTAGG,514
CTATGGTCGTCAGGTATCACGAGCGGGTAACAGTTC,952
CTAAAGATGAAAAGAACCGTGATCAGCAACAGCTTC,645
CTATCTTCTACAGCCCTGATGCAAGTGGAAGTTTTC,511
GAAATTAAAGTAATCCATGTGGTAAATAAAATCTAG,625
GAAAGCCGCAGACGTGAGTTGATCTTTTTGCTTTAG,484
